# Experimental data collected from several papers.
# Protocols differ between the studies behind these lines. ± marks the error that the study gave.
# Cell line: MCF7
Compound,effect on,method,sample,time,setting,with,IC50
Cc1nc2ccccc2n(CC(=O)Nc2ccc(C(=O)Nc3cccc(Cl)c3)cc2)c1=O,cell growth,MTT,,,,,2.3 µM
C=CCc1ccc(OCc2nnc(SCC(=O)N3CCOCC3)o2)c(OC)c1,cell growth or viability,MTT,,72 h,,,38.9 µM
CNC(=O)c1cc(Oc2ccc(NC(=O)Nc3ccc(Cl)c(C(F)(F)F)c3)cc2)ccn1,cytotoxicity,MTT,,24 h,,,7.29 ± 0.3 µM
N#CC(C(=O)Nc1cccc(C(F)(F)F)c1)=C1Sc2nc3ccc(S(=O)(=O)N4CCCC4)cc3nc2S1,cell growth,,,24 h,,,≤ 8.78 µM
O=S(=O)(Sc1ccccc1Cl)c1ccccc1Cl,cell growth,sulforhodamine B,,,,,> 10 µM
O=C(c1ccc2ccccc2c1)c1cn(-c2ccccc2)nc1C1=Nn2c(SCCCSc3nnc4n3N=C(c3nn(-c5ccccc5)cc3C(=O)c3ccc5ccccc5c3)CS4)nnc2SC1,cell growth or viability,MTT,,48 h,,,42.1 µM
CSC(SC)=C(C#N)C(=O)Nc1nnc(NC(=O)c2ccccc2)s1,cell growth or viability,MTT,,48 h,,,15.1 µM
c1cnc2c(c1)Nc1ncccc1S2,cell growth or viability,WST-1,,72 h,,,< 5 µg/mL
Cc1ccc(-n2c(SCC(=O)NNC(=O)Nc3c(C)cccc3C)nc3ccccc3c2=O)cc1,cell growth or viability,MTT,,,,,25.2 µM
NCCCCCCCNc1n[n+]([O-])c2ccccc2[n+]1[O-],cytotoxicity,MTT,10% FBS medium,6 h + 18 h,hypoxia 3% O2,,88.6 ± 0.1 µM
N#Cc1c(-c2ccc(Cl)cc2)c2c(=O)[nH]c(CCl)nc2n(C2CCCCC2)c1=O,cell growth or viability,MTT,,,,,1.29 µM
[O-][n+]1nc(NCCCNc2n[n+]([O-])c3ccccc3[n+]2[O-])nc2ccccc21,cytotoxicity,MTT,10% FBS medium,6 h + 18 h,hypoxia 3% O2,,24 ± 3.3 µM
N#Cc1c(-c2ccc(Cl)cc2)c2c(=O)[nH]nnc2n(C2CCCCC2)c1=O,cell growth or viability,MTT,,,,,1.31 µM
NCCCCCCCCNc1n[n+]([O-])c2ccccc2[n+]1[O-],cytotoxicity,MTT,,24 h,normoxia,,214 ± 26 µM
Clc1ccc(SSc2ccc(Cl)cc2)cc1,cell growth or viability,SRB,,,,,> 10 µM
CCC(O)CC(=O)O[C@@H]1C[C@@H]2[C@@]3(C)CCC[C@](C)(CC)[C@@H]3CC[C@@]2(C)[C@@H]2C[C@@H](O)C3=C(C(=O)O[C@@H]3C)[C@@]12C (some centres unmarked),cell growth or viability,CCK-8,,24 h,,,≤ 25 µM
C#Cc1cccc(Nc2ncnc3cc(OCCOC)c(OCCOC)cc23)c1,cell growth or viability,MTT,,48 h,,,2.51 µM
COc1cc(C=C(C#N)C(=O)Nc2nnc(NC(=O)c3ccccc3)s2)ccc1O,cell growth or viability,MTT,,48 h,,,13.6 µM
[O-][n+]1nc(NCCNc2n[n+]([O-])c3ccccc3[n+]2[O-])nc2ccccc21,cytotoxicity,MTT,,24 h,normoxia,,> 70 µM
Cc1cc(-c2ccccc2)n(-c2nnc(NC(=O)c3ccccc3)s2)c(=O)c1C#N,cell growth or viability,MTT,,48 h,,,72.4 µM
CCCCNC(=O)c1ccc(NC(=O)Cn2c(=O)c(C)nc3ccccc32)cc1,cell growth or viability,MTT,,,,,29.3 µM
N#Cc1c(-c2ccc(Cl)cc2)c2c(=O)[nH]cnc2n(C2CCCCC2)c1=O,cell growth or viability,MTT,,,,,3.15 µM
O=c1[nH]cc(F)c(=O)[nH]1,cell growth or viability,MTT,,72 h,,,46 µM
CC(C)c1cnn2c(NCc3ccccc3)cc(NCCCCCCN)nc12,,immunoblotting,,4 h,,,15 µM
O=S(=O)(Sc1ccc(Br)cc1)c1ccc(Br)cc1,cell growth,sulforhodamine B,,,,,> 10 µM
CC1=CC(=O)C(C(C)C)=CC1=O,cell growth or viability,MTT,,72 h,,,23 µM
[O-][n+]1nc(NCCCCCCCCNc2n[n+]([O-])c3ccccc3[n+]2[O-])nc2ccccc21,cytotoxicity,MTT,10% FBS medium,6 h + 18 h,hypoxia 3% O2,,> 30 µM
Cn1nnc2c(C(N)=O)ncn2c1=O,cell proliferation,MTS,,72 h,,10 µM HNL,126 µM
O=S(=O)(Sc1ccc(F)cc1)c1ccc(F)cc1,cell growth,sulforhodamine B,,,,,7.5 µM
NCCCn1c2c(c3ccc(N)cc3c1=O)C(=O)c1ccccc1-2,cell growth or viability,SRB,,48 h,,,0.85 µM
CN1CCC2(CC1)C/C(=N\N=C\c1ccc(O)cc1)c1ccccc1O2,cell growth or viability,MTT,,48 h,,,10.1 µM
CC[C@H](CC[C@@H](C)[C@H]1CC[C@H]2[C@@H]3CC=C4C[C@@H](O)CC[C@]4(C)[C@H]3CC[C@]12C)C(C)C,cell growth or viability,resazurin,,24 h,,,188 µg/mL
CC/C(=C(\c1ccccc1)c1ccc(OCCN(C)CCOCCOCCOc2ccc3[nH]cc(CCNC(C)=O)c3c2)cc1)c1ccccc1,cell survival,MTT,,day 9,"dosed days 2, 4, 7",,21.3 µM
O=C(Nc1nnc(NC(=O)c2cc3ccccc3oc2=O)s1)c1ccccc1,cell growth or viability,MTT,,48 h,,,64.1 µM
COc1ccc(-n2c(SCC(=O)NNC(=O)Nc3ccccc3)nc3ccccc3c2=O)cc1,cell growth or viability,MTT,,,,,6.39 µM
COc1ccc(-c2cc(-c3ccc(N(C)C)cc3)c3c(=O)n(C)c(=O)n(C)c3n2)cc1,cell growth or viability,MTT,,48 h,,,< 5 µM
O=C(CSc1nc2ccccc2c(=O)n1-c1ccc(Cl)cc1)NNC(=O)NCc1ccccc1,cell growth or viability,MTT,,,,,68.1 µM
C=CCc1ccc(O)c(-c2ccc(O)c(CC=C)c2)c1,cell proliferation,MTS,,24 h,,10 µM BLM,2.51 µM
O=S(=O)(c1ccc2nc(Cl)c(Cl)nc2c1)N1CCCC1,cell growth,,,24 h,,,31 ± 2.1 µM
CC(=O)O[C@H]1C(=O)O[C@@H]2C[C@H]3C(C)=CC(=O)[C@@H](O)[C@]3(C)[C@H]3[C@]4(O)OC[C@]32[C@@H]1[C@@H](C)[C@H]4O,cell viability,MTS,,24 h,,,11 ± 1.13 µM
[O-][n+]1nc(NCCCCCCCNc2n[n+]([O-])c3ccccc3[n+]2[O-])nc2ccccc21,cytotoxicity,MTT,,24 h,normoxia,,> 30 µM
COc1ccc(NC(=O)NNC(=O)CSc2nc3ccccc3c(=O)n2-c2ccc(Cl)cc2)cc1,cell growth or viability,MTT,,,,,43.8 µM
[O-][n+]1nc(NCCCCCNc2n[n+]([O-])c3ccccc3[n+]2[O-])nc2ccccc21,cytotoxicity,MTT,10% FBS medium,6 h + 18 h,hypoxia 3% O2,,> 30 µM
COc1cc(-c2cc(-c3ccc(Cl)cc3)n(CN(C)C)c(=O)c2C#N)ccc1O,cell growth or viability,MTT,,,,,2.14 µM
N#CC(=Cc1ccco1)C(=O)Nc1nnc(NC(=O)c2ccccc2)s1,cell growth or viability,MTT,,48 h,,,28.1 µM
COc1ccc(/C=C\c2cc(OC)c(OC)c(OC)c2)cc1O,cell growth or viability,SRB,,,,,0.039 µM
O=C(CSc1nc2ccccc2c(=O)n1-c1ccc(Cl)cc1)NNC(=O)Nc1ccccc1,cell growth or viability,MTT,,,,,12.5 µM
N#CC(C(=O)Nc1nnc(NC(=O)c2ccccc2)s1)=C1Nc2ccccc2N1,cell growth or viability,MTT,,48 h,,,84.7 µM
Cc1ccc(-n2c(SCC(=O)NNC(=O)Nc3ccc(Cl)cc3)nc3ccccc3c2=O)cc1,cell growth or viability,MTT,,,,,18.2 µM
COc1cc(-c2cc(-c3ccc(Cl)cc3)n(CN3CCCCC3)c(=O)c2C#N)ccc1O,cell growth or viability,MTT,,,,,25.4 µM
